Assay results from different studies.
Each numbered part is a random draw from the data of one study; scales do not carry over between parts. Positions count from the first letter of the parent shown.

Set 1 — technique: universal PBM; molecule type: double-stranded DNA, one strand shown; medium: in vitro; concentration: not given; reading: higher = stronger binding
Target: Sal-like protein 4, full length isoform B (SALL4, Homo sapiens, UniProt Q9UJQ4-2, residues 1-616)
Setting: 8-mer, flanks averaged, mean of replicates
Sequence	E-score
ATCTTACA	0.112
ACAGAGCC	-0.197
ATAAGTAC	0.285
CCGTATTC	0.0388
AGTTAGTC	-0.146
CCTCCAGG	-0.254
CTACCAAG	-0.0732
ACTTGTAA	0.237
GGAGGCGA	-0.285
AATCTCTG	0.0664
ACCTTGAG	0.0735
AAGAATTC	-0.107
TAATTAAA	0.364
AGCATAAT	0.321
CCCCGTGA	-0.213
CAGAGTTA	-0.0234
AAAATTTG	0.299
CAATCAGC	-0.0887
CATTAATC	0.207
CGACCTTA	0.0642
AGAAAGTG	-0.0561

Set 2 — technique: RNA Bind-n-Seq; molecule type: RNA; medium: in vitro; concentration: 365 nM; reference: no-protein control; reading: higher = stronger binding
Target: RNA binding protein fox-1 homolog 2, RRM domain, GST-SBP tag (RBFOX2, Homo sapiens, UniProt O43251-10, residues 100-194)
Setting: natural RNA segment, single round, ends assumed
Construct (chain): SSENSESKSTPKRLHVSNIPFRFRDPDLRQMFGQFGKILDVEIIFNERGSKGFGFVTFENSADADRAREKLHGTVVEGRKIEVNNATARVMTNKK
Sequence	RBNS enrichment (R)
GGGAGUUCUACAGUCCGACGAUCCAGCUCCGGAACCAGAAGUGAACCAGACCCCUCCCUCCCCCUCACUUCCUCUUCUCCGCCCUCAGCUUUCCUCUCAUGUGGCAAACGUGCGACUCUGUGGUCCUGAGUGCUGGAAUUCUCGGGUGCCAA	0.63
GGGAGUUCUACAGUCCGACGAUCUUCAUUGUAGCACUAUUGGUAAUAAAAGAACAGAUGUUUGUGCAUUUUUAUGUGAAGAUCCUUCUCGUAUUUCAUUUGGAAGGAUGAGCGAGGUCUGCUUCUUUCUUUUUUGGAAUUCUCGGGUGCCAA	0.478
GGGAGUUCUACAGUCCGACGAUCAAUAUAUUGAAAUGGGAGCUUUCAAGUCAAGGAGCCAAACAUAGUAACUAAAUCAUGACCAUCUGAUGCAAGAUGCAGUCAUAUCCAUGGUACUGAAAAUAACAUGAUGCUGGAAUUCUCGGGUGCCAA	0.546
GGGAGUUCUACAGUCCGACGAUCAGCCAGAGCAGAGAGGGCUGCUGACUUCCGUGUGGAGCAGAGAGGCCUGAGGGCCUCCUAAAAGGUUUAAAUGUCCACGCCUCUCCAGUUGCUGAAGUAGGGUCUGAGAGUGGAAUUCUCGGGUGCCAA	0.801
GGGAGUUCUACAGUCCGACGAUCAGAUAAAGCUAUUUUAUUCUGUAUUUUUAAAACUGUUCCGUACAAAUAAAAGCUCUCCUGGACACAGUUUGCUCUUCACGUGCCUCCUUCUUGGGCUACUCUUUAAGAAAUGGAAUUCUCGGGUGCCAA	0.349
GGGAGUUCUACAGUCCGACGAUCACCAUCUUGGCCAGGCUGGUCUUGAAUUCCUGACCUCAGGUGAUCCACCCACCUUGGCCUCCCAAAGUGCUAGUAUUAUGGGCGUGAACCACCAUGCCCAGCCGAAAAGCUGGAAUUCUCGGGUGCCAA	2.21
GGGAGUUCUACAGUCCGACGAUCUUUUUAGUCUAGCCUGUUUGAUUACUUGUAAAUCUCUGCUAGAAGGAGAGAAUUUUCCAGACAACUGAAUGAAUGAUAAUCCUGGAAGUCAGGUCUAGGAUGAUUAGGGUUGGAAUUCUCGGGUGCCAA	1
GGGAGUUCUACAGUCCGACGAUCGAAUCUUCGGUUCUCGAGGAAGUGUUGACAGUGUGAUGCUAAUGUCUGCUUUUCUUGGCGUUGGGUAGAAGCAGGACAUCUGUGUGUAUGUGCGUAUUUAAAUUAGAUUAUGGAAUUCUCGGGUGCCAA	4

Set 3 — technique: DHFR PCA, deep sequencing; medium: yeast; together with: (+)-ABA 0.0091 µM; reference: wild-type fitted maximum; reading: higher = stronger binding
Target: ABI1, truncated, D143A, DHFR fusion (Arabidopsis thaliana)
Setting: methotrexate growth selection, single substitutions
Starting sequence: PYL1, truncated, DHFR fusion (Arabidopsis thaliana); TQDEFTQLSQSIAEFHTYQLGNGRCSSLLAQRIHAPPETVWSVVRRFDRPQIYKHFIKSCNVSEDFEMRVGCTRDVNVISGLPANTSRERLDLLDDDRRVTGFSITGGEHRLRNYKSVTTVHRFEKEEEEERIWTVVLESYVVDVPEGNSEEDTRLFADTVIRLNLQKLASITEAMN; partner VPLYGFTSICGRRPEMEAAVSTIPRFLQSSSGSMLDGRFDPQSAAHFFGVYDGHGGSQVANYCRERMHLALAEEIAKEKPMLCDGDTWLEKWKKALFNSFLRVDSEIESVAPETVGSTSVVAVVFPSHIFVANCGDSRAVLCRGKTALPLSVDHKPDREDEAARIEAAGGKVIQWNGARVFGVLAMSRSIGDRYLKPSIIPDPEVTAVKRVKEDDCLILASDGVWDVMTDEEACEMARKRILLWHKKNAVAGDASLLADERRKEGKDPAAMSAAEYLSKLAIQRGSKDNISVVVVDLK
Change	relative binding score [%]
E130P	67.9
E152T	8.57
R123G	85.9
W41I	-2.22
I52E	21.7
N114D	13.5
R132D	60
L93M	18.1
D95Q	0.0313
T154G	-2.97
F157L	3.8
E38K	-0.0615
A84H	72.3
V121Q	-3.31
W41N	-1.99
V62I	17.3
V40C	-1.43
D95C	-5.71
S150K	13.2
V44I	11.6

Set 4 — target: CCNB1, cyclin fold, Cln2 fusion (human); technique: yeast growth competition, sequencing; medium: yeast; setting: strong parent motif; reference: not given; reading: higher = stronger binding
Starting sequence: MICAL3 docking peptide (human); LQLRRQLSFSEDS; partner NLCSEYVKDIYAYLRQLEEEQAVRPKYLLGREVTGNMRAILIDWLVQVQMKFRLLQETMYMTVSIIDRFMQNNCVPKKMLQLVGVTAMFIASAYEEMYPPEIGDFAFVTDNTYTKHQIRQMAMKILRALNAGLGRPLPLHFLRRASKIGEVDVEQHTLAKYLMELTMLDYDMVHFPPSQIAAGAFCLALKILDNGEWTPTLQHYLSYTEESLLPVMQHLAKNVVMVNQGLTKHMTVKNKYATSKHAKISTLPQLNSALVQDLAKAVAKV
Change	normalised enrichment score
L3C	3.82
F9R	0.315
F9Y	3.76
R5P	0.0473
E11V	2.1
R4Q	3.17
E11R	1.5
D12H	3.88
L7F	-0.384
L3E	0.718
Q2W	3.26
R4C	5.12
Q2K	5.39
F9N	-0.0624
Q6R	6.07
D12K	3.16
S10M	2
R5E	0.248

Set 5 — technique: protein binding microarray; molecule type: double-stranded DNA, one strand shown; medium: in vitro; concentration: not given; reference: not given; reading: higher = stronger binding
Target: Histone acetyltransferase KAT6A, winged helix 2, GST fusion (KAT6A, Homo sapiens, UniProt Q92794, residues 85-181)
Setting: 8-mer, flanks averaged, mean of 2 arrays, mostly near background
Construct (chain): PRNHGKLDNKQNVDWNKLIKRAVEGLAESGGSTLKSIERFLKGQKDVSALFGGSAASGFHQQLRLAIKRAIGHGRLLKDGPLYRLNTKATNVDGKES
Sequence	E-score
ATAGAGCA	0.162
CAAGATGC	0.11
GTCTTAAC	-0.132
CAACTGTC	-0.0694
AGGTGCTA	-0.0121
AACGGAGG	0.0488
ACGCCATG	0.0168
TCTGAGAA	-0.0131
AATTGGCA	-0.117
AACTGGAA	-0.0841
CATGCAGA	0.00316
CTGTCGCC	-0.0823
CGCACTCC	-0.0413
ACCGTGGG	-0.104
CCCCAAGG	-0.0939
CGCTACTC	0.0949
CGACTCAA	-0.104
AGGGAAAA	0.0184
CATGCCAG	-0.0198
ATCTGATA	-0.011
AGACCTAA	-0.18
TAAAGGTA	-0.0935
ACGTTTGG	-0.233
TAGCTAGA	-0.0347
